Results gathered from unrelated publications.
Parts stem from different laboratories: compare values within a part only. “And” joins repeats or separate records; there may be more than shown.
Sequence of UniProt P51812 (whole entry, looked up): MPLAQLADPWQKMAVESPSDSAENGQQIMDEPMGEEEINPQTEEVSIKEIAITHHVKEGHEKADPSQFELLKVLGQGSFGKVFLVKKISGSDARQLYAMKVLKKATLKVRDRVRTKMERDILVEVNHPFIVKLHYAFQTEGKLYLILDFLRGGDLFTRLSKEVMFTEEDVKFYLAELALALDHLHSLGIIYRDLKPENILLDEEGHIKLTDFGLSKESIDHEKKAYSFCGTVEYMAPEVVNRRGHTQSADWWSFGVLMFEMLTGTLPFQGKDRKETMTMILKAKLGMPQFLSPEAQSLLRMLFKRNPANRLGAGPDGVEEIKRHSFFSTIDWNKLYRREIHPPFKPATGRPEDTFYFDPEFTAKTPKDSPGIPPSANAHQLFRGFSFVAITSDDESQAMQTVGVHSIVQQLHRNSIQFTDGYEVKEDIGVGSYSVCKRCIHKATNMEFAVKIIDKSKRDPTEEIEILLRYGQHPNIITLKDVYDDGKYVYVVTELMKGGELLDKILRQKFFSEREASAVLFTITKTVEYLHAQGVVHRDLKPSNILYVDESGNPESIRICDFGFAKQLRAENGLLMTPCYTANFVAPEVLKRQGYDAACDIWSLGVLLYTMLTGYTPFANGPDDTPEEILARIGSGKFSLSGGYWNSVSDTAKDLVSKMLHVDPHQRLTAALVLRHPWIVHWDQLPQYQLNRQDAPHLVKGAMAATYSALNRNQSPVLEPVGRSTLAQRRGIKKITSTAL
Sequence of UniProt Q9H2K8 (whole entry, looked up): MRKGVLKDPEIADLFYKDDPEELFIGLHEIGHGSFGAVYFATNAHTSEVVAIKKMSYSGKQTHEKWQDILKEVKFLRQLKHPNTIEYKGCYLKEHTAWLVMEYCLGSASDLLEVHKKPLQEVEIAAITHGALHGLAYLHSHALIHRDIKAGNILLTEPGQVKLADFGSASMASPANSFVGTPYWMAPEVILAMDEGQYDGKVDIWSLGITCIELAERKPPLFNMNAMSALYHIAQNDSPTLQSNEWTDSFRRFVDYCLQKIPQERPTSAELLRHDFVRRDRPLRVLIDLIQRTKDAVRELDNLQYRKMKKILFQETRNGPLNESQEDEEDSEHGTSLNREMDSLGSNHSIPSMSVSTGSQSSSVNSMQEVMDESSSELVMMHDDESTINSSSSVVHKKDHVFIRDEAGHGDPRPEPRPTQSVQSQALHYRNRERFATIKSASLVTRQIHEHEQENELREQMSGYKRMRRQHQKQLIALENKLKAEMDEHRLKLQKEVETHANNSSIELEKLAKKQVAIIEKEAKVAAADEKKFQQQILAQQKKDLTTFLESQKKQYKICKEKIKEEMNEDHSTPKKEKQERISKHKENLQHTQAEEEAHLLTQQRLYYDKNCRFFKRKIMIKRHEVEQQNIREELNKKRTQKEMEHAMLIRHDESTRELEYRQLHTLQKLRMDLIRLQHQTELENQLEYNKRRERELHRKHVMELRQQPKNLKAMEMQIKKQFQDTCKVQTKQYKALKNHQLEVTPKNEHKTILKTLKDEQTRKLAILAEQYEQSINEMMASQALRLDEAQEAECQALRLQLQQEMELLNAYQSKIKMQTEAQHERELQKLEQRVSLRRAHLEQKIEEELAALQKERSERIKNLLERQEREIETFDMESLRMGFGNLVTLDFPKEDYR
Sequence of UniProt O15111 (whole entry, looked up): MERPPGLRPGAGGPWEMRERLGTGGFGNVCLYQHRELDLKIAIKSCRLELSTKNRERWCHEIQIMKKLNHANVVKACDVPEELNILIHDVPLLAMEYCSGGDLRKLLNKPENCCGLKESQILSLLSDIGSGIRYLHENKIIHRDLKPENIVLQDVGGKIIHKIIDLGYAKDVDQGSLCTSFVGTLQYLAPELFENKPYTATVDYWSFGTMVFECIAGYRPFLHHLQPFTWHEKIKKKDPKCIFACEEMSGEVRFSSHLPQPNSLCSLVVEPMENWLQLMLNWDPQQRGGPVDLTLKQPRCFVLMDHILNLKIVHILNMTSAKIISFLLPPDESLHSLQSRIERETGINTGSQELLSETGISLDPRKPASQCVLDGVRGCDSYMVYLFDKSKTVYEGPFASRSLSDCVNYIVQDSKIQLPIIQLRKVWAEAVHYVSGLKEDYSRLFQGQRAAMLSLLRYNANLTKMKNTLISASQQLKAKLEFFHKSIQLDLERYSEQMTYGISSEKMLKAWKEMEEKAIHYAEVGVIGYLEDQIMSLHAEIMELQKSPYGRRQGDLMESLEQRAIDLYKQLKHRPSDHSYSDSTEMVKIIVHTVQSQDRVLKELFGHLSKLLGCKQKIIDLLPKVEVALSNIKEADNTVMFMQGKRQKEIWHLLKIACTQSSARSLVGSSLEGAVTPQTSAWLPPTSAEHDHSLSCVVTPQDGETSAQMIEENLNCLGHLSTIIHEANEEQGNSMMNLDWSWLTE
Sequence of UniProt P10721 (whole entry, unmodified, looked up): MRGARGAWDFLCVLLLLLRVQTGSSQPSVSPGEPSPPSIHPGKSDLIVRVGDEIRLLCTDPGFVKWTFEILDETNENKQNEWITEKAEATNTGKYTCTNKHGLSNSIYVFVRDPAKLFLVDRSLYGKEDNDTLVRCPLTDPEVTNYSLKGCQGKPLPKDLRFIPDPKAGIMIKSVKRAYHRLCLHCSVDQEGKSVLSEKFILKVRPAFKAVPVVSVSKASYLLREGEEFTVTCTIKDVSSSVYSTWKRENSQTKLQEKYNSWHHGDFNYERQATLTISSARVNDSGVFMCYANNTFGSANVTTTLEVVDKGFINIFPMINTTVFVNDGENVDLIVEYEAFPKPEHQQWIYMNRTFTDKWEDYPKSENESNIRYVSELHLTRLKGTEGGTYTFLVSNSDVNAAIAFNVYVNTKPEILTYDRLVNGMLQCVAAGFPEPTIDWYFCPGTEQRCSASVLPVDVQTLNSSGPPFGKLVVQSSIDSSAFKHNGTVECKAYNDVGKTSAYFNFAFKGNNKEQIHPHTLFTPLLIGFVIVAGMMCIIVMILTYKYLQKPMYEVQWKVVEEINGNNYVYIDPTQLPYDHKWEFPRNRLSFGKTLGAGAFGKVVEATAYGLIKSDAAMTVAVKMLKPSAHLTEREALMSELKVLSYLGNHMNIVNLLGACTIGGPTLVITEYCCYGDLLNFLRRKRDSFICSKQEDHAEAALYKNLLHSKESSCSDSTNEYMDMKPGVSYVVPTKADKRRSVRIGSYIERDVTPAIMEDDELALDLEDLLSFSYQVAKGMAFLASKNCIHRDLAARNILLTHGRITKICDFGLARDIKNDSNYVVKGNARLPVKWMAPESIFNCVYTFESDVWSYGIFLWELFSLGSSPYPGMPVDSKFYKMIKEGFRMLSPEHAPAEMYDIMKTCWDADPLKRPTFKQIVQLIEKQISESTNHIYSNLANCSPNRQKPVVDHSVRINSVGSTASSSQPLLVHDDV
Sequence of UniProt Q9NRH2 (whole entry, looked up): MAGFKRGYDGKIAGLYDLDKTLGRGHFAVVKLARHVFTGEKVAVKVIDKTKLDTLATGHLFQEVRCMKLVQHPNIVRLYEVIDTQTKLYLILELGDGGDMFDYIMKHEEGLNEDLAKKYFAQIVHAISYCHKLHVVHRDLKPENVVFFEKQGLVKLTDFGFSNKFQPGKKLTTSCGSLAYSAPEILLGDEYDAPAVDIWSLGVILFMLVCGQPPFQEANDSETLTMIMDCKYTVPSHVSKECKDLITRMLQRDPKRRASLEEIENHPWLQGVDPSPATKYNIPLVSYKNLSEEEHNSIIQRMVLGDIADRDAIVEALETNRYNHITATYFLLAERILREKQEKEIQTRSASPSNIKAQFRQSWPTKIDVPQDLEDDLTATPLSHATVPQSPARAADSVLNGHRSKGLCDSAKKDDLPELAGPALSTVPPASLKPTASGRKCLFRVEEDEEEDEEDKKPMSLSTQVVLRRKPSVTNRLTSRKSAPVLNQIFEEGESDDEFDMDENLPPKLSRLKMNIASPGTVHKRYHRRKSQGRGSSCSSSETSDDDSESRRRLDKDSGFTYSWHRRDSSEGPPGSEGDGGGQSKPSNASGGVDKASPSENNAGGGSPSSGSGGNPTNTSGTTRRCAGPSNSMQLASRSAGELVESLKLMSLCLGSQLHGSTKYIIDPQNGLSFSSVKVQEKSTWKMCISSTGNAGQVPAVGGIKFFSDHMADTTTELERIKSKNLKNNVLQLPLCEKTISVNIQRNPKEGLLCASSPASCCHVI
Sequence of UniProt Q07002 (whole entry, looked up): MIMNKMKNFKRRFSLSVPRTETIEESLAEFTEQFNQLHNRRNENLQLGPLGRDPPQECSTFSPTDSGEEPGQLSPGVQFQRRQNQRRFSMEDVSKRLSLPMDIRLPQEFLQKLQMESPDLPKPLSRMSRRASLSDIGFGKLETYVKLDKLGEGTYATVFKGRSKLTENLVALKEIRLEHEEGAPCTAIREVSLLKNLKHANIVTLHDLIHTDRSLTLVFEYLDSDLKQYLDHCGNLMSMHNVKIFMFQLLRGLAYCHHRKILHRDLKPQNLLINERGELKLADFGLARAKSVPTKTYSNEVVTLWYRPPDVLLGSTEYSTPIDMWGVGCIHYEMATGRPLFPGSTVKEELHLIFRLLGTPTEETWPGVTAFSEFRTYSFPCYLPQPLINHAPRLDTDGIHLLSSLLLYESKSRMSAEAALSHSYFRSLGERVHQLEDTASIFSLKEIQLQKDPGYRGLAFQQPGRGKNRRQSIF
Sequence of UniProt P15735 (whole entry, looked up): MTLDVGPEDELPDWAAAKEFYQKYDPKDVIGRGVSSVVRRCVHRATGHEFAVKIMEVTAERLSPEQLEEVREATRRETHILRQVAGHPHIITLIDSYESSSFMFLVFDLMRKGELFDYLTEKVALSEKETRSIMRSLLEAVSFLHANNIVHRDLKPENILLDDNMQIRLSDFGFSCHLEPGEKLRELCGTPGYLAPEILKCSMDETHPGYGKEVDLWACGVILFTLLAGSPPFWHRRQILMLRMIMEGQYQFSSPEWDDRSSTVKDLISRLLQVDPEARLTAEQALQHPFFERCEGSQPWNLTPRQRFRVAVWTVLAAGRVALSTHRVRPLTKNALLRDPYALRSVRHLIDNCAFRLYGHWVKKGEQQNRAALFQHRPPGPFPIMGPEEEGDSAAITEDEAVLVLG

Block 1
Structure (SMILES): CO[C@@H](C)c1c(Nc2ccc([C@@H](N(C)C(=O)C3CCS(=O)(=O)CC3)C(F)(F)F)cc2)cnc2cc(Cl)nn12
Technique: competition with immobilised ligand
Tested at: 1 µM
| target | test | remaining binding |
| --- | --- | --- |
| TAOK3 (Homo sapiens, UniProt Q9H2K8) | cell-free assay | 100% |
| CHUK (Homo sapiens, UniProt O15111) | cell-free assay | 100% |
| RPS6KB1 (Homo sapiens, UniProt P23443) | cell-free assay | 90% |
| EGFR (Homo sapiens, UniProt P00533, del746-750) | cell-free assay | 100% |
| FLT3 (Homo sapiens, UniProt P36888, D835V) | cell-free assay | 52% |
| Tyrosine-protein kinase ABL1, non-phosphorylated (ABL1, Homo sapiens, UniProt P00519, T315I) | cell-free assay | 100% |
| KIT (Homo sapiens, UniProt P10721, V559D/V654A) | cell-free assay | 88% |
| EGFR (Homo sapiens, UniProt P00533, A750P/del747-749) | cell-free assay | 87% |
| Ribosomal protein S6 kinase alpha-3, N-terminal kinase domain (RPS6KA3, Homo sapiens, UniProt P51812) | cell-free assay | 100% |
| PHKG2 (Homo sapiens, UniProt P15735) | binding | 44% |
| SNRK (Homo sapiens, UniProt Q9NRH2) | cell-free assay | 100% |
| Tyrosine-protein kinase ABL1, phosphorylated (ABL1, Homo sapiens, UniProt P00519, H396P) | cell-free assay | 98% |
| CDK18 (Homo sapiens, UniProt Q07002) | cell-free assay | 99% |
| FGFR1 (Homo sapiens, UniProt P11362) | cell-free assay | 91% |

Block 2
Target: RNA binding protein fox-1 homolog 2, RRM domain, GST-SBP tag (RBFOX2, Homo sapiens, UniProt O43251-10, residues 100-194)
Technique: RNA Bind-n-Seq
Molecule type: RNA
Sample: in vitro
Tested at: 365 nM
Notes: natural RNA segment, single round, ends assumed
Reference: no-protein control
Direction: higher = stronger binding
Target sequence (chain): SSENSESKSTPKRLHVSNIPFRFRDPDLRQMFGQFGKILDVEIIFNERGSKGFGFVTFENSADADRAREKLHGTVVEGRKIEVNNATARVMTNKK
| Oligonucleotide | RBNS enrichment (R) |
| --- | --- |
| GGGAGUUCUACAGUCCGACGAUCGACUAACUCUUCAGUUAAGAACACUGUAGAAAUGGUAGACCAACUUAAAGUCUACCUUUUAACAAUCUUUACCCCAAACCUAAAGAUUCUAGGGGUCACUUAUCUCUAUUUGGAAUUCUCGGGUGCCAA | 0.4 |
| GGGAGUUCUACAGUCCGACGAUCUGGCAACAUGAACUGGGAAACAGAGCUCUCUCUGCCUAGAGAAAGGAGCGGCCCUCAAGAUCUCUUUGCCGAGUUUGGGAGCCAUGAGCAAGUCCUUGGCUCCAUACUUCUGGAAUUCUCGGGUGCCAA | 0.256 |
| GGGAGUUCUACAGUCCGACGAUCUCUUGUAAAACUUGUAAAUAAACUAUCAUCUUUGUAGAUAUCUUAAAGGUGUAAAGUUUGCAAAUUUGAAGAAAUAUAUAUUAACACUGUGGUCAGGUACAUUCCUUAAAUGGAAUUCUCGGGUGCCAA | 0.446 |
| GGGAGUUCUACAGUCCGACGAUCGCUUGAAUAUUUGCUAUAUAGAAAUAUAGUAUGGAAAGUUUUUGGUCUUAAUGUAGCUACUGUGCGGGUCACAGUUUCUCCCAAUGAUUAUGACUGGGACAUUCUUUGGUUGGAAUUCUCGGGUGCCAA | 0.682 |
| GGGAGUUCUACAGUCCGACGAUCCCCACAGAACCUAAUCUGAACAAUCCCCGAUGAUUCCCUCUGCUUUUUGAAUGCUUCCAAGACUUAUCAUGAAAACUGUCAAUGGAUAAUCAUUUCCUGCUGACUUUGCAUGGAAUUCUCGGGUGCCAA | 0.769 |
| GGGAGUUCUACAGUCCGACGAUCUUUGGGGUGCAAAUGCUAAUGUCAAACUUGAGUCACAAAGAACAUGUAGAAAACAAAAUGGAUAAAAUCUGAUAUGUAUUGUUUGGGAUCCUAUUGAACCAUGUUUGUGGUGGAAUUCUCGGGUGCCAA | 7.69 |
| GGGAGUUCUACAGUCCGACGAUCCUAGGGCAGAGCUCUGGGGGAUUGUUAUUUUACAUUACCUGGCCUAGAGUAGCAUAUUAGACAACAGUCAUCAUUGCAAGUAGGAGGACCGUAAAUGGCAUUUUACAUGAUGGAAUUCUCGGGUGCCAA | 0.533 |
| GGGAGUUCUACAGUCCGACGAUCGGCAUGAGCGCAUGGAUUCUGUCACCAAGCGUAUAAAAGGACCCUGGCAUUGGGAAACCUAUGACGGACUGUUUUUGCUGUAGAAGUAGGGAUUUUACAGAAGUCUCCUUUGGAAUUCUCGGGUGCCAA | 3.54 |

Block 3
Species: human
Sample: microsomes or S9
Tested at: 2 µM
Time: 0.5 h
| Structure (SMILES) | remaining compound |
| --- | --- |
| CC(NCc1cnc2cnccn12)c1ccc2c(c1)OCO2 (centres unmarked) | 41.9% |
| CC1(C)CNC(=O)c2nc(Cc3ccc(O)cc3)[nH]c2C1 | 97.6% |
| CN(c1ccccc1)c1ncnc2c([C@H]3O[C@@H](COCc4ccccc4)[C@H](OCc4ccccc4)[C@@H]3OCc3ccccc3)cnn12 | 0.095% |

Single results of other studies
| Substance | target or system | test | test system | setting | scale | endpoint | value |
| --- | --- | --- | --- | --- | --- | --- | --- |
| FBL (Homo sapiens, UniProt P22087) | BMS1 (Homo sapiens, UniProt Q14692) | cross-linking MS | cell fractions | with: DSSO | – | cross-linked residues | K102 to K1206 |
| CCC1=C(C)CN(C(=O)NCCc2ccc(S(=O)(=O)NC(=O)N[C@H]3CC[C@H](C)CC3)cc2)C1=O | HaCaT | – | – | 100 µM, 36 h | – | viability | 91.2% |
| SFPQ (Homo sapiens, UniProt P23246) | NONO (Homo sapiens, UniProt Q15233) | cross-linking MS | – | hits only | – | interaction screen | cross-linked |
| CC(=O)N[C@@H](Cc1c[nH]c2ccccc12)C(=O)N[C@@H](CCC(=O)C=[N+]=[N-])C(=O)OC(C)C | – | item: N6-methyllysine | mouse, EL4 tumour-bearing, EL4 tumour | dose not given | reference: vehicle | log2 fold change | -0.784 |
| SF3A3 (Homo sapiens, UniProt Q12874) | SF3B4 (Homo sapiens, UniProt Q15427) | cross-linking MS | cell fractions | with: DSSO | – | cross-linked residues | K420 to T42 |
| Ic1ccc(Nc2nc(NCCN3CCOCC3)nc(N3CCOCC3)n2)cc1 | HEK293T ATF4-firefly luciferase reporter | integrated stress response, item: ATF4 | – | 10 µM, with: ISRIB | reference: DMSO | reporter signal | 86.5% and 82.4% and 89.1% and 87.7% and 109% and 91.1% and 76.7% and 92.4% |
| NOP14 (Homo sapiens, UniProt P78316) | NOC4L (Homo sapiens, UniProt Q9BVI4) | cross-linking MS | cell fractions | with: DSSO | – | cross-linked residues | K535 to K342 |

Excerpt of the above (single results of other studies):
| Substance | target or system | test | test system | setting | scale | endpoint | value |
| --- | --- | --- | --- | --- | --- | --- | --- |
| CCC1=C(C)CN(C(=O)NCCc2ccc(S(=O)(=O)NC(=O)N[C@H]3CC[C@H](C)CC3)cc2)C1=O | HaCaT | – | – | 100 µM, 36 h | – | viability | 91.2% |
| SFPQ (Homo sapiens, UniProt P23246) | NONO (Homo sapiens, UniProt Q15233) | cross-linking MS | – | hits only | – | interaction screen | cross-linked |
